Results from different studies.
Each numbered part is a random draw from the data of one study; scales do not carry over between parts.

Set 1
Target: RING finger protein unkempt homolog, zinc fingers 1-6, GST-SBP tag (UNK, Homo sapiens, UniProt Q9C0B0, residues 30-357)
Sequence of UniProt Q9C0B0 (30-357, looked up): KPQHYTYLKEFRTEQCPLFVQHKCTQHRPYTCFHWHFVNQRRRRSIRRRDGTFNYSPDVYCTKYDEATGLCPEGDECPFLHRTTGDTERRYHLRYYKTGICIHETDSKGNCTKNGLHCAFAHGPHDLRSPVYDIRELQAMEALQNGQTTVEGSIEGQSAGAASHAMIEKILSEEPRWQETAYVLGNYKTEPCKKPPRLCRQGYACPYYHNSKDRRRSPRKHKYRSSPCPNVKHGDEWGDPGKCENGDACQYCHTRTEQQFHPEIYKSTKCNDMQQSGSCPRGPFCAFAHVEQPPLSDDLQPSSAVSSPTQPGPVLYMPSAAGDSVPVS
Technique: RNA Bind-n-Seq
Form: RNA
Matrix: in vitro
Tested at: not given
Setting: RNA with constant flanks, human and mouse sites, ends assumed
Relative to: input RNA pool
Reading: higher = stronger binding
Constant ends, left off below: GGGAGUUCUACAGUCCGACGAUC … CAACAGAGGAUUGAGCAUCA
Oligonucleotide	bound/input enrichment [ratio]
AUGCAAACUUCAAAUCUGGAUGUGAAUAAUAAUAUUUUUAUUAUAGUAUAAUCCAGGUGAGUUUAUAGAAUUUGUGUUUUGUGCUUAUAAACUGUCACCUUCUGAUACUUUUCUUCAUCC	0.547
GAUCUCCAUACAAAUGUUGCCACUGCUGUUUUAGAACAUAUAAAGGCAAGAAAAUUGGAUGUAUAUUUUGAAUAUGAAGAAAAAAUAAUGAGCAAAACUACUCUGGAUAAAUCUCUUCUA	0.256
UCUCCGCUGAACCCCAUUUCUUCUGUUUCAUAGUGCAGAAGUAUUCUUUCAACUAUAUUUUUAGUGGACUUGUUUUAAUUUUAGAGGAAUUUCCAGUACAGAUGCUGUGAGCUGACAUGG	37.8
UUUGGUAAUGAAUAAAUUCUGCUAGUGGUAUAUGUUGAUCUGAACUUACAAUGAUGGGAUAUAGAAUUGGCAGAGUGGCAGAUGUUCACAAUUGUCUACAAGUAGAUGUGCUAGACAAUG	0.356
CCGGGACACUGCCUGAUGUUCGAUCACCGGCCACGGUCCUGGCGAGAGCUGCCCCUGCGGCUAGCUGACUUUGGUGUGCUGCAUAGGAAUGAGCUCUCGGGGGCUCUCACCGGGCUCACA	0.178
AAGUUAAACCAAUAGUAUAGAAAGCCUAAGAAUGAACACUGAUUGGACAUACUCACAGAAAUUAAGGGAAAAACACAUAUUGUAAAAUUCCUGUCAAUGUUUGAGUAGAAUACAGAAGUA	1.61

Set 2
Target: Histone acetyltransferase KAT6A, winged helix 2, GST fusion (KAT6A, Homo sapiens, UniProt Q92794, residues 85-181)
Technique: protein binding microarray
Form: double-stranded DNA, one strand shown
Matrix: in vitro
Tested at: not given
Setting: 8-mer, flanks averaged, mean of 2 arrays, mostly near background
Relative to: not given
Reading: higher = stronger binding
Target sequence (chain): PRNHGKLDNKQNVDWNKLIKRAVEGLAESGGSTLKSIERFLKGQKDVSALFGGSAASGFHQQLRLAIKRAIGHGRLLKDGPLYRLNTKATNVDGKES
Oligonucleotide	E-score
CCGCAACA	0.106
AACGACAC	-0.0141
GATCCCAC	0.0636
AAGTATAA	-0.0932
GGGACAAC	-0.104
GCGCAGGA	-0.0711
AGGGCAGC	0.155
AATTCGTC	0.182
CAAACAGG	0.0164
ACAGATGA	-0.172

Set 3
Target: Protein C-ets-1 (ETS1, Homo sapiens, UniProt P14921, residues 1-441, full length assumed)
Technique: protein-binding microarray
Form: double-stranded DNA, one strand shown
Matrix: in vitro
Tested at: not given
Setting: k-mer, scored over probes, only values ≥0.25
Reading: higher = stronger binding
Residues (chain): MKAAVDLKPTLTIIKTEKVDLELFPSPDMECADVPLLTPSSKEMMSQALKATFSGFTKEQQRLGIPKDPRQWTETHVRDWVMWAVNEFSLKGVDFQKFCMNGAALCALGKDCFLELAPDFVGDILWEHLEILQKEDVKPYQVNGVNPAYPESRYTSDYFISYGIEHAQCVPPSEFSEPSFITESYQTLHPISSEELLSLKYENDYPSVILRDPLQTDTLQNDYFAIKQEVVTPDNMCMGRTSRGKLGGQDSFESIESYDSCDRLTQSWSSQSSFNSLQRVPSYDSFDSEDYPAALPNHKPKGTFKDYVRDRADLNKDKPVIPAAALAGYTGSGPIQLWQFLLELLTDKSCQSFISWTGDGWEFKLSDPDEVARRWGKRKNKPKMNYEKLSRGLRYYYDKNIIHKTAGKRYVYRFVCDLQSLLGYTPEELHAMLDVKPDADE
Oligonucleotide	E-score
ACACGGAA	0.269
CATTCCGG	0.37
GACATCCC	0.276
ATAGGAAA	0.352

Single results of other studies
Molecule	target	assay	test system	setting	scale	measurement	result
PhoQ, residues 284 288 289 292 302 303 TAVSDG	PhoP, residues 12 14 15 18 19 MHTVL (Escherichia coli, UniProt P23836)	Sort-seq, measured: YFP reporter	E. coli	PhoQ-PhoP variant library, with: 10 µM Mg2+	relative to: high Mg2+ state, higher = stronger signaling	fold induction	13

A few entries again (set 2):
Oligonucleotide	E-score
AATTCGTC	0.182
CAAACAGG	0.0164
ACAGATGA	-0.172
